Assay results collected from several papers.
Each numbered part is a random draw from the data of one study; scales do not carry over between parts. Changes are numbered by the printed parent chain.

Sample 1
Target: Histone acetyltransferase KAT6A, winged helix 2, GST fusion (KAT6A, Homo sapiens, UniProt Q92794, residues 85-181)
Technique: protein binding microarray
Form: double-stranded DNA, one strand shown
Sample: in vitro
Concentration: not given
Setting: 8-mer, flanks averaged, mean of 2 arrays, mostly near background
Baseline: not given
Direction: higher = stronger binding
Target sequence (chain): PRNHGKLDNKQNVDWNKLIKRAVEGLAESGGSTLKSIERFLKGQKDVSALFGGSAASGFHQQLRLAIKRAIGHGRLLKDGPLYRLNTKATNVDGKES
Oligonucleotide	E-score
GTCGGTCA	-0.0247
ACATGCCG	0.0194
TGGCACCA	-0.0242
CAAGGTAA	0.00287
GAGGCTCC	0.0149
AGATGTTG	-0.218
AGGCTATC	0.0367
GGTACTTA	-0.104
CTGTACAC	-0.0834
CTTACCGA	-0.00604
ATGCTTAC	-0.121
TCAAACGA	0.16
ACGAGCAA	-0.0645
AAGCTACT	0.00353
CTTATGCC	0.0178
CTTTTTGA	-0.0321
GTGCCTCA	-0.134
CACTCCAA	0.0187
ACTCTACG	-0.046
CATCCCTA	-0.156
TAGCTGGA	-0.0191
GAAAAAGC	0.108
AGCAAGGA	-0.0101

Sample 2
Target: Prothrombin, mature alpha-thrombin (F2, Homo sapiens, UniProt P00734)
Technique: aptamer microarray, sandwich
Form: DNA with 2'F-ANA
Sample: in vitro
Concentration: 200 nM
Setting: whole 15-mer aptamer, many near background
Added: Cy3 exosite-II aptamer, 400 nM
Direction: higher = stronger binding
Oligonucleotide: GGTTGGTGTGGTTGG
Modification	mean fluorescence intensity
2'F-ANA at 2 5 6 8 12 14	49.3 a.u.
2'F-ANA at 2 3 4 8 10 13 15	200 a.u.
2'F-ANA at 2 4 5 6 8 9 10 12 15	54.1 a.u.
2'F-ANA at 1 5 6 7 11 12 13 14	46 a.u.
2'F-ANA at 2 3 4 8 11 12 13 14 15	329 a.u.
2'F-ANA at 1 2 3 4 6 7 10 11 13 14	45.8 a.u.
2'F-ANA at 1 4 6 8 11 12 13	171 a.u.
2'F-ANA at 1 2 5 9 10 11 12 14	43.1 a.u.
2'F-ANA at 3 4 6 9 10 14 15	167 a.u.
2'F-ANA at 2 3 6 8 10 15	318 a.u.
2'F-ANA at 1 2 14	51.5 a.u.
2'F-ANA at 1 3 7 8 10 13 14 15	62.6 a.u.
2'F-ANA at 1 3 5 7 10 11 13	44.3 a.u.
2'F-ANA at 4 9 12 15	456 a.u.
2'F-ANA at 2 3 4 5 9 11 14	84.7 a.u.
2'F-ANA at 1 2 4 5 6 7 10 11 13 14	76 a.u.
2'F-ANA at 1 3 5 7 10 15	50.9 a.u.
2'F-ANA at 4 7 8 14 15	149 a.u.
2'F-ANA at 1 3 5 8 9 13 14 15	52.3 a.u.
2'F-ANA at 4 6 10 12	111 a.u.
2'F-ANA at 3 4 5 6 8 9 11 12 14	97.3 a.u.
2'F-ANA at 2 4 5 6 7 8 9 10 11 13 14 15	143 a.u.
2'F-ANA at 1 4 5 6 9 11 15	51.4 a.u.
2'F-ANA at 3 4 6 10 12 13 14	222 a.u.
2'F-ANA at 1 2 8 9 10 11 13	50.2 a.u.

Sample 3
Target: RING finger protein unkempt homolog, zinc fingers 1-6, GST-SBP tag (UNK, Homo sapiens, UniProt Q9C0B0, residues 30-357)
Technique: RNA Bind-n-Seq
Form: RNA
Sample: in vitro
Concentration: not given
Setting: RNA with constant flanks, human and mouse sites, ends assumed
Baseline: input RNA pool
Direction: higher = stronger binding
Constant ends, left off below: GGGAGUUCUACAGUCCGACGAUC … CAACAGAGGAUUGAGCAUCA
Residues (chain): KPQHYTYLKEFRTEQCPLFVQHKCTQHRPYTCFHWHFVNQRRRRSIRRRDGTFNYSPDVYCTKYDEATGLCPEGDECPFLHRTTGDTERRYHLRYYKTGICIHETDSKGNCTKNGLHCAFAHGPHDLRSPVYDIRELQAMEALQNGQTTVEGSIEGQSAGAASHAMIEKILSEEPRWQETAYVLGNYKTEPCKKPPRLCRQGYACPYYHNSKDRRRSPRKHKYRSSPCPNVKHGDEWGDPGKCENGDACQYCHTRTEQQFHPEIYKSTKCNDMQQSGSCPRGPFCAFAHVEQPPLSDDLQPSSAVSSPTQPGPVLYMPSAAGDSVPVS
Oligonucleotide	bound/input enrichment [ratio]
CCAACCUUUUGAUGUUGUGACUUGAAGCCUGAGAAUUGAAUGUUUUAAGUGAGUUUACAGUUUAGUGCUGGGCCACAUUCCUAGUUAUUCUGAGGUAUACGCAGCCUGCAAGCUGCGGUU	0.237
ACCAGUGAACCUGUACACAUUUUAAAGAGGUCUUUUGCAAGAACUGUCUCAGUGGAAUGUUUUGAGUCAUUGUUGAGUAUUCUUCACUGGAGCUGGACCACCUUAGUCUUAGGAGUUGAA	4.46
AAAUUUCCUCUCUUAAAGCCUUCUCCAAAAUUGGCAUCUCUUAUAGAUGGUUCAUCUCCUGUUAGUAUUUUGGUCUGGACCACACAACCUUGGACGAUUCCAGCCAAUGAAGCUGUUUGC	0.637
UGCUUCUUUUUUUAUCCAUGUAAUGUGUUGCCUUUAAAAACAAAAAUGAUGACUAAAAUAAUGUGUGAGGUGGUUCAUCCCUAAGAAGUCAACGGAAGGUCACUUCAAUCGUACCCUUCU	0.26
UGCUAGAAAACACAUUGUACUGUGCUUUUUCUGGAAUUCAGUAUAAUGGCAUCACUGCCUGUUUUUCACAUCUUUUGUUUCCUGUUCAUUUUAAGGAAACCUACUAAAUCCAGUUAAUAU	0.409
CAGAAACUGGAAGAGAUGGUCACCCGCUUAGAUCAAGAAGUAGCUGAAGUUGAUAAAAACAUAGAACUUUUGAAAAAGAAGGAUGAAGAACUAAGUUCUGCUCUGGAGAAAAUGGAAAAU	1.32
UCUGCAUGAUGUAGAAAUAAAUAAAAUUAUAUCCACAACUGCAUCAAAGACAGAAACACCAAUAGUGUCUAAGUCUCUGAGUUCUUCUUUGGAUGACACCGAAGUUAAGAAGGUUAUGGA	0.383
GGCGCCUUUGCUUUGCCCAUUCUAAACGCACUGCUGGAGACCCCGCAGCGUUUGUUUGCCCUAGUUCUUACCCCGACUCGGGAGCUGGCCUUUCAGAUCUCAGAGCAGUUUGAAGCCCUG	0.179
AUUCAAAAGGCAGUGGCAGUUUCAUAGGACAGGUACAAGCAACAUCUUUUUUGGGUCCUAUAGUUACAGGAUAACUUCUUCAAGAGUUUCUCCAGCCACAUCCUUUGUUUUUCUGAACCC	0.257
UGCUGCAUUUCCAGGGAUGGUGUUUAACACCGCUUCCUCCAGCUCCCUUUUCUAAGAAAGAAUAAAUGGAGUUCUGCUUUUUAUGAAAGGGUCUUUGGUUUUCAGUGUCAACACUGAGAA	0.0513
AUUCCCUUAGUUGCUCAGGAAUUAAUGAAAAAAAUGAUACGUCAGUUUGCAAUUGAGUACAUCUCAAAAAGCGGUAAAAUUCAAGAAAAUAGAAAUGGUUCAAUUGGAGCAAGUCUCGUG	0.452

Sample 4
Target: Sal-like protein 4, full length isoform B (SALL4, Homo sapiens, UniProt Q9UJQ4-2, residues 1-616)
Technique: universal PBM
Form: double-stranded DNA, one strand shown
Sample: in vitro
Concentration: not given
Setting: 8-mer, flanks averaged, mean of replicates
Direction: higher = stronger binding
Target sequence (chain): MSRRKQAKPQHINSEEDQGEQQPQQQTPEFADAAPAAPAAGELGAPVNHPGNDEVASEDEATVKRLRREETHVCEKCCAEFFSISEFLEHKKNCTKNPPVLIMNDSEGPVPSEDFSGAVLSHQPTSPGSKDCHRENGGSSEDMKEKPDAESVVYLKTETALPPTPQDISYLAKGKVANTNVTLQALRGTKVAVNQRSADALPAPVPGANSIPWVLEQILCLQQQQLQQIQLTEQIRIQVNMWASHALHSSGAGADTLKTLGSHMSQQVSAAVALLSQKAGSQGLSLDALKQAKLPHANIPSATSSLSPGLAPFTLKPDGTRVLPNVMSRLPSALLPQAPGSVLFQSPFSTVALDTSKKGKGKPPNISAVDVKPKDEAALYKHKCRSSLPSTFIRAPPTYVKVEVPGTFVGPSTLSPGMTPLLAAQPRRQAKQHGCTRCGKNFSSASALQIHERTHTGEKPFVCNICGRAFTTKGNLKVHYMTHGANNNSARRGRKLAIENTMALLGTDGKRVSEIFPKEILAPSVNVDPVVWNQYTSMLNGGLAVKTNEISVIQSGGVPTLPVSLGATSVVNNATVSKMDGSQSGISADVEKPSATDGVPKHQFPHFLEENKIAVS
Oligonucleotide	E-score
GTCAAAAC	-0.0722
GCCTTTGA	-0.0476
AGATTAAG	0.131
CTGTATCC	0.183
CATATTCG	0.231
TAGATGCA	0.0629
ATATGGGC	0.187
CGAGCGTC	-0.246
CTAGGTAC	0.0252
ACATAACG	0.284
CACTTCTC	-0.146
ACACCGCG	-0.33
GAATACTC	0.0191
CGCCGGCC	-0.405
ACTATACT	0.181
ATATCCAC	0.174
CGTAACCA	0.0574
ATATAAGC	0.319
AGAAACTA	0.079

Sample 5
Target: Interferon regulatory factor 7, full length, phosphomimetic (IRF7, Homo sapiens, UniProt Q92985, residues 1-503, S101K/S471D/S472D/S475D/S476D/S477D/S483D/S484D/S487D)
Sequence of UniProt Q92985 (whole entry, unmodified, looked up): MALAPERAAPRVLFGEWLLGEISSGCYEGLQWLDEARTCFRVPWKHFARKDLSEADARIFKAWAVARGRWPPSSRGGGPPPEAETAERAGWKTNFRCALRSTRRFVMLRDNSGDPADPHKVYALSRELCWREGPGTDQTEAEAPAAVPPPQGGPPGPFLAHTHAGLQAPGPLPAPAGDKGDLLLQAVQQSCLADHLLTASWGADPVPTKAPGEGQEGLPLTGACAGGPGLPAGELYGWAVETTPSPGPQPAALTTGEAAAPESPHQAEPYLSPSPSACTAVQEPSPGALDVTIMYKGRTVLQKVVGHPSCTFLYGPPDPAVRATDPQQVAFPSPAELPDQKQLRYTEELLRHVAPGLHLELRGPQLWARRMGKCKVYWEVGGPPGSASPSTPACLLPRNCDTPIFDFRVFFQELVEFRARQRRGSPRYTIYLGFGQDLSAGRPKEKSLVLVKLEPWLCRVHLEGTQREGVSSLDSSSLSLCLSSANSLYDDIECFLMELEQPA
Technique: protein-binding microarray
Form: double-stranded DNA, one strand shown
Sample: in vitro
Concentration: 250 nM
Setting: 60-bp whole probe
Added: salmon DNA 0.4 mg/ml
Baseline: random background probes
Direction: higher = stronger binding
Constant ends, left off below: GCCTAGCAC … GTCTTGATTCGCTTGACGCTGCTG
Oligonucleotide	log fluorescence
GACGGTATCGGGCTCGGGACGTGCTAG	-0.377 z-score
GATGGTATCGGGTATCGGGACGTGCTA	0.336 z-score
GACGGACTTGGGTTTCGGGACGTGCTA	1.63 z-score
GACAGACTGCTTCTCCTGACGTGCTAG	-0.358 z-score
TCATAACTCATTTTCGTACTGTGCTAG	1.26 z-score
TCATATTAAAATTTCATACTGTGCTAG	0.744 z-score
GACGATTGCAGTCTCGAGACGTGCTAG	-0.0453 z-score
GACGATATCGGGTCTGGAGACGTGCTA	-0.514 z-score
TTAGGTATCGGTTGCGGTTAGTGCTAG	1.36 z-score
GACGCACTGGGGTTTCGAGACGTGCTA	2.06 z-score
TCTGGTTCCCATTCCAGGGTGTGCTAG	2.25 z-score
GACGTTCTCAGTATCGAGACGTGCTAG	0.736 z-score
TGCTTTCTCCCAAGTCTTGTTGTGCTA	1.79 z-score
TTAGGTTACCTTATCCTTTAGTGCTAG	0.42 z-score
TTGGGACTGGACTATCGGTTAGTGCTA	-0.759 z-score
TTAGATCTCAGACCGGATTAGTGCTAG	0.249 z-score
TTAGCACTGAGTCTCGATTAGTGCTAG	0.706 z-score

Sample 6
Target: CREB5, bZIP domain (human)
Technique: DHFR protein complementation
Sample: yeast
Setting: single substitutions, most at no-binding floor
Baseline: wild-type JUN-FOS pair
Direction: higher = stronger binding
Parent: JUN, bZIP domain (human); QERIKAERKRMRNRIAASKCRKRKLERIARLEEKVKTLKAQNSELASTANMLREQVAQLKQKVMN; partner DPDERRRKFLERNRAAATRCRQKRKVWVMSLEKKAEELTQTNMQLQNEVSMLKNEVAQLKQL
Change	binding fitness
E33N	-0.463 natural log
L31D	-1.31 natural log
T48L	-0.252 natural log
V35Q	-1.28 natural log
L38G	-1.33 natural log
R30F	-0.271 natural log
K39L	-0.372 natural log
R53T	-1.11 natural log
S43H	-0.26 natural log
E54P	-1.38 natural log
K34R	-0.169 natural log
A40T	-0.232 natural log
R30K	-0.344 natural log
E33D	-0.295 natural log
S47Q	-0.176 natural log
K36C	-0.333 natural log
L31K	-1.28 natural log
K39D	-0.413 natural log
E33S	-0.517 natural log
A46H	-0.448 natural log
I28N	-0.726 natural log
R53M	-1.1 natural log
V56L	-0.375 natural log
M51S	-0.262 natural log
L59S	-1.46 natural log
